Measured values collected from several papers.
Protocols differ between the studies behind these lines. Values joined by “and” are separate records of one study, mostly repeats; a detail may differ. ± marks the error that the study gave.
ABCG2: Broad substrate specificity ATP-binding cassette transporter ABCG2 (ABCG2, Homo sapiens, UniProt Q9UNQ0)
UniProt Q9UNQ0, sequence (whole entry, looked up): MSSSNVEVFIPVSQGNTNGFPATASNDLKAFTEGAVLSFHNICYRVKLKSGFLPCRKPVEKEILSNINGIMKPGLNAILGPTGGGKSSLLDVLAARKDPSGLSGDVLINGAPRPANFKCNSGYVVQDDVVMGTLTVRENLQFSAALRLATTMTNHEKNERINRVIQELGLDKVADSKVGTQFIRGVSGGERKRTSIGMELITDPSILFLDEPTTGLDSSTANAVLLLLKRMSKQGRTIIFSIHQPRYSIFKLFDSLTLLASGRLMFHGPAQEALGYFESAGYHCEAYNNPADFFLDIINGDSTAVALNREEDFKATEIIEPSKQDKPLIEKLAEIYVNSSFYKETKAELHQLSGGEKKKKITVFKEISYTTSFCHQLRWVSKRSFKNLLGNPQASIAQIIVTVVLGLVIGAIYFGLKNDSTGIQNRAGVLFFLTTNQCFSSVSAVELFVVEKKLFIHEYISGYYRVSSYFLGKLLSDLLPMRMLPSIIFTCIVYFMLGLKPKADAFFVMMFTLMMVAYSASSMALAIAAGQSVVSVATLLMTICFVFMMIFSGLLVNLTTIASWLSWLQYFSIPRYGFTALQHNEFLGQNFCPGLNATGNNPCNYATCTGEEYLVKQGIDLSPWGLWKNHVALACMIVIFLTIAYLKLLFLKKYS
UniProt P11712, sequence (whole entry, looked up): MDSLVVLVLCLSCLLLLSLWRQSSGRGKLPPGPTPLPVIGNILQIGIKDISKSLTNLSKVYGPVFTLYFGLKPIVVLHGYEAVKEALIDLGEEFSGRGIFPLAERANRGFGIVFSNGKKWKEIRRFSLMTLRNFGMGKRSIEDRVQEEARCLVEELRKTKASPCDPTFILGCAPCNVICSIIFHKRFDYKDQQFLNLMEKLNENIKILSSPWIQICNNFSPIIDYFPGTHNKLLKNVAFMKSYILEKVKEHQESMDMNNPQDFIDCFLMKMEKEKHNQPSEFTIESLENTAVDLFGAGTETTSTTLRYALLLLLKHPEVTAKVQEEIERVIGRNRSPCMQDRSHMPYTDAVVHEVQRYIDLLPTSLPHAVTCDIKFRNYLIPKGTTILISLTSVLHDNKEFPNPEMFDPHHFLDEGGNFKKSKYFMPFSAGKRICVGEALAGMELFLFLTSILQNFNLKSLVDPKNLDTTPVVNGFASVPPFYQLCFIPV

SMILES | tested on | assay | test system | conditions | how to read | endpoint | result
C=C(NC(=O)c1csc(-c2nc3c(cc2O)-c2nc(cs2)C(=O)NC(C(C)O)C(=O)NC(=C(C)OC)c2nc(cs2)C(=O)NC2c4nc(cs4)C(=O)NC(COC(=O)c4c5c6c(cccc6n4O)COC(=O)C(OC4CC(C)(O)C(N(C)C)C(C)O4)C2OC5)c2nc-3cs2)n1)C(N)=O (centres unmarked) | – | – | ICR mice, Streptococcus pneumoniae ATCC 49169 infected, immunocompromised, blood | intravenous, 16 mg/kg/day twice daily | – | MRT(0-t) | 5.81 h
CCCCCC(=O)N[C@@H](Cc1ccc(NC(=O)OC(C)(C)C)cc1)C(=O)N[C@@H](CCCC)C(=O)N[C@@H](Cc1ccccc1)C(=O)[C@@]1(C)CO1 | Trypanosoma brucei brucei | – | HepG2 cells, Lister 427 | – | baseline: HepG2 CC50 over T. brucei EC50 | selectivity index | < 1
CC(C)OCCOCc1ccc(OCC(O)CN(N=O)C(C)C)cc1 (centres unmarked) | Salmonella typhimurium | Ames test | TA1535 | 50 µg/plate, 30 % hamster S9 | baseline: solvent control | revertant fold increase | 2.3 fold
CNC(=O)C1CCCN(C(=O)C2CC3CCC2N3C(=O)[C@@H]2C[C@@H](O)CN2C(=O)NCc2cccc(Cl)c2F)C1 (mixture of isomers) | Cytochrome P450 2C9 (CYP2C9, Homo sapiens, UniProt P11712) | preincubation without NADPH | human | 1.85 µM | baseline: negative control | remaining activity | 93.5%
COC1CN([C@H]2CC[C@H]([C@@]3(C)Oc4c(Cl)cc(C(=O)NCc5c(SC)cc(C)[nH]c5=O)c(C)c4O3)CC2)C1 | – | RNA-seq, refers to: FZD7 | human, whole blood | dose not given, 24 h | baseline: pretreatment baseline | log2 fold change | 1.69
CNc1nc(N)nc2c1ncn2[C@@H]1O[C@H](CO)[C@@H](O)[C@@]1(C)F | ABCG2 | bidirectional transport | MDCKII transfected with human BCRP | 10 µM, with: Ko143 1 µM | – | Papp B to A | 8.65 ± 0.43 ×10⁻⁶ cm/s
CCN(CC)CC#CCNc1ccnc2cc(Cl)ccc12 | Salmonella typhimurium | mini-Ames test | TA98 | 250.0 µg/well, with rat liver S9 | – | revertants | 12 revertants/well and 14 revertants/well
N#Cc1cccc(-c2ccc(=O)n(Cc3cccc(-c4ncc(OCC5CCN(CC(=O)N6CCN(c7ccc8c(c7)C(=O)N(C7CCC(=O)NC7=O)C8=O)CC6)CC5)cn4)c3)n2)c1 (centres unmarked) | Caco-2 | transwell monolayer | – | 2 µM, 120 min, pH 7.4, 0.1% DMSO, with: Ko143 10 µM | – | efflux ratio | 6.9
N#C[C@@H]1CCCN1C(=O)CNC(=O)c1ccnc2ccc(OCCCN3CCN(C(=O)CCc4ccc(O)c(CN5CCN6CC(=O)[O][Al-]([18F])([O]C(=O)C5)[O]c5ccc(CCC(=O)N7CCN(CCCOc8ccc9nccc(C(=O)NCC(=O)N%10CCC[C@H]%10C#N)c9c8)CC7)cc5C6)c4)CC3)cc12 (some centres unmarked) | U-87 MG tumour model | – | host not given, bone | 2 h, tumour-bearing | – | tracer uptake | 12.4 %ID/g
O=C1NC2(CC2)COc2ncc(F)cc2[C@H]2COCCN2c2ccn3ncc1c3n2 | Salmonella typhimurium | Ames test | TA98 | 150 µg/plate, 48 h, with: without S9 | – | revertant colonies | 11 ± 2 revertants/plate
O=C(N/N=C/c1ccc2c(ccc[n+]2Cc2ccccc2)c1)c1cccc(C(=O)N/N=C/c2ccc3c(ccc[n+]3Cc3ccccc3)c2)c1 | MYC parallel G4 DNA | FRET melting | – | 1 µM, DNA 0.2 µM, with: duplex DNA competitor 10 µM | – | ΔTm | 8.3 ± 0.2 °C
N#C[C@@H]1CC(F)(F)CN1C(=O)CNC(=O)c1ccnc2c(NC(=O)[C@H](CCCCNC(=O)CCOCCOCCOCCOCCOCCOCCNC(=O)CN3CCN(CC(=O)[O-])CCN(CC(=O)[O-])CCN(CC(=O)[O-])CC3)NC(=O)CCCc3ccc(I)cc3)cccc12.[177Lu+3] | U-87 MG tumour model | – | host not given, heart | 1 h, tumour-bearing | – | tracer uptake | 5.67 %ID/g
C[n+]1cccc2cc(/C=N/NC(=O)c3cccc(C(=O)N/N=C/c4ccc5c(ccc[n+]5C)c4)c3)ccc21 | hp2 hairpin duplex DNA | FRET melting | – | 1 µM | – | ΔTm | 0.2 °C
C[C@@]1(F)[C@H](O)[C@@H](CO)O[C@H]1n1cnc2c(=O)[nH]c(N)nc21 | ABCG2 | bidirectional transport | MDCKII transfected with human BCRP | 10 µM | – | Papp B to A | 3.81 ± 0.17 ×10⁻⁶ cm/s
